# Measurements of several laboratories.
# Lines come from different studies, so protocols differ. ± gives the spread as reported.
Structure (SMILES),assay,test system,setting,how to read,endpoint,value
O=C(CN1CCC(O)CC1)Nc1nccs1,Fe3+/ascorbic acid system,,"concentration not given, 30 min, 37 °C, together with: DMSO 33 mM",,hydroxyl radical scavenging,97.2%
CSCC[C@H](N)C(=O)N1CCC[C@H]1C(=O)NCC(=O)NCC(=O)O,"diketopiperazine formation, transition state theory",1-propanol,"concentration not given, 70, 80, 90 °C, 0.5% acetic acid",,enthalpy of activation,22 ± 3.35 kcal/mol
FC(F)(F)Oc1ccc(/N=c2\oc3ccccc3cc2-c2ccccc2)cc1,,"rat, formalin paw oedema","intraperitoneal, 10 mg/kg, 4 h",,oedema reduction,45.8 ± 3.2%
"CC[C@@]1(c2cccc(C(F)(F)F)c2)C2=C(Nc3n[nH]cc31)[C@H](F)C(C)(C)CC2=O (single isomer, unassigned)",item: phospho-tau Thr231,"rat, postnatal day 10, cortex","intraperitoneal, dose not given, 3 h after dose",relative to: vehicle,tau phosphorylation at Thr231,decreased
Cn1c(=O)c(=O)n(C)c2cc(S(=O)(=O)NNC(=S)Nc3ccccc3)ccc21,IPGTT,HFD/STZ diabetic male albino mice,"10 mg/kg, 2 h",,blood glucose,116 ± 2.85 mg/dL
CC(=O)Nc1ccc(OC(=O)CCC(=O)[O][Pt-2]23([O]C(=O)CCC(=O)Oc4ccc(NC(C)=O)cc4)([NH2+][C@@H]4CCCC[C@H]4[NH2+]2)[O]C(=O)C(=O)[O]3)cc1,,"BALB/c mouse, 4T1 tumour, tumour",dose not given,,mature dendritic cells,59.2%
COC(=O)[C@H](CC(C)C)NC(=O)[C@@H]1C[C@@H]2CN1C(=O)[C@H]([C@@H](C)OP(=O)(O)O)NC(=O)[C@H](CO)NC(=O)[C@@H](NC(=O)c1cccc(C(F)(F)F)c1)CCC(=O)NCCO2,,zebrafish embryo,"microinjection, 24.5 ng, 24 hpf",relative to: control,yolk extension area decrease,31%
CNc1oc(-c2cccc3ccccc23)nc1C#N,glucose tolerance test,CD1 mice,"ip, 24 mg/kg daily, 2 weeks",relative to: untreated,glucose tolerance,no effect
NC[C@@H](C(=O)Nc1ccc(-c2cn[nH]c2)cc1)c1ccccc1,,normotensive Macaca cyclopis monkeys,"topical, 0.1 %",,mean IOP reduction,28.5%
CCC1CC2C(C)=CC3C(=O)CCCC3C=CC(C)=CC2C(=O)O1 (centres unmarked),western blot,"5XFAD transgenic mouse, hippocampus","oral, 30 mg/kg/day three times per week, 1 month",relative to: vehicle,Iba-1 level reduction,22.7%
CN1CCC[C@]1(C)/C=C/S(=O)(=O)NC(=O)Nc1c2c(cc3c1CCC3)CCC2,item: IL-1β,"human, whole blood ex vivo","oral, dose not given, multiple ascending dose, together with: LPS and ATP",,inhibition,> 90%
CCCc1nc2cc(C(=O)N3CCC4(CC3)CC(=O)c3cc5c(cc3O4)OC(C)(C)CC5)cc(C)c2[nH]1,item: lipogenesis genes,"C57BL/6J male mouse, HFD-induced NASH, liver",dose not given,relative to: vehicle,mRNA level,inhibited
CC(C)[C@H](N)C(=O)N1CCC[C@H]1C(=O)NCC(=O)NCC(=O)O,"diketopiperazine formation, transition state theory",1-propanol,"70, 80, 90 °C, 0.5% acetic acid",,ΔS‡ at 298.15 K,-45 ± 1 J/(mol·K)
O=C(/C=C/c1ccc(O)c(O)c1)OCCCC[P+](c1ccccc1)(c1ccccc1)c1ccccc1,immunoblotting,rat liver mitochondria,"10 µM, 15 min",relative to: untreated,cytochrome c release,~2.5 fold
O=c1[nH]c(=S)[nH]c2c1C(c1cc(/N=N/c3ccc(Br)cc3)ccc1O)c1c([nH]c(=S)[nH]c1=O)N2,,"rat, carrageenan paw oedema","oral, 50 mg/kg, 5 h",,oedema inhibition,57%
CCCCCCCCCCCCCCCC(=O)NCCCC[C@H](N)C(=O)N[C@@H](CC(=O)O)C(=O)N[C@H](C(=O)N[C@@H](Cc1c[nH]cn1)C(=O)N[C@@H](Cc1ccccc1)C(=O)N[C@@H](CCCNC(=N)N)C(=O)N[C@H](C(=O)N[C@@H](Cc1ccccc1)C(=O)N[C@@H](CCCNC(=N)N)C(=O)N[C@@H](CO)C(=O)N[C@@H](Cc1c[nH]cn1)C(=O)N[C@@H](CO)C(=O)N[C@@H](CC(=O)O)C(=O)N[C@@H](Cc1ccc(O)cc1)C(=O)N[C@@H](CCCNC(=N)N)C(=O)N[C@@H](CCCNC(=N)N)C(=O)N[C@H](C(=O)O)[C@@H](C)CC)[C@@H](C)O)[C@@H](C)O,,"C57BL/6J mouse, MCD diet","intraperitoneal, 0.6 nmol/g, 3 weeks, 3 times weekly",,liver weight,1.08 ± 0.17 g
FC(F)(F)c1ccccc1/N=c1\oc2ccccc2cc1-c1ccccc1,,"rat, formalin paw oedema","intraperitoneal, 20 mg/kg, 4 h",,oedema reduction,48.9 ± 2%
CCCCCCCCCCCCCCc1sc(NC(=O)CCN2CCC(O)CC2)nc1-c1ccccc1,Fe3+/ascorbic acid system,,"concentration not given, 30 min, 37 °C, together with: DMSO 33 mM",,hydroxyl radical scavenging,40%
O=C1CCN(Cc2ccccc2)CC1C(C[N+](=O)[O-])c1ccccc1 (centres unmarked),tail immersion test,BALB/c mice,"ip, 50 mg/kg, 1.5 h",,tail flick response,58.7%
Cc1ccc(C(=O)Nc2ccc(CP(=O)(O)O)cc2CP(=O)(O)O)cc1NC(=O)c1cccc(NC(=O)Nc2cccc(C(=O)Nc3cc(C(=O)Nc4ccc(CP(=O)(O)O)cc4CP(=O)(O)O)ccc3C)c2)c1,,human plasma,235 µM,,PT,14.2 ± 2.3 s
CC12CC(O)C3CC1(OC1OC(CO)C(O)C(O)C1O)C3(COC(=O)c1ccccc1)C(=O)O2 (centres unmarked),,"rats, chronic stress depression model","oral, 14 mg/kg, 14 days",relative to: depression group,sucrose preference,increased
CC[C@H](C)[C@H](NC(=O)[C@H](CC(N)=O)NC(=O)[C@H](CC(N)=O)NC(=O)[C@H](CCCNC(=N)N)NC(=O)[C@H](CC(N)=O)NC(=O)[C@H](CCCNC(=N)N)NC(=O)[C@H](CCCCN)NC(=O)[C@@H](NC(=O)[C@H](CC(N)=O)NC(=O)[C@H](CCSC)NC(=O)[C@H](CC(C)C)NC(=O)[C@H](Cc1c[nH]c2ccccc12)NC(=O)[C@H](CCC(N)=O)NC(=O)[C@@H](NC(=O)[C@H](Cc1ccccc1)NC(=O)[C@H](CC(=O)O)NC(=O)[C@H](CCC(N)=O)NC(=O)[C@H](C)NC(=O)[C@H](CCCNC(=N)N)NC(=O)[C@H](CCCNC(=N)N)NC(=O)[C@H](CO)NC(=O)[C@H](CC(=O)O)NC(=O)[C@H](CC(C)C)NC(=O)[C@H](Cc1ccc(O)cc1)NC(=O)[C@H](CCCCN)NC(=O)[C@H](CO)NC(=O)[C@H](Cc1ccc(O)cc1)NC(=O)[C@H](CC(=O)O)NC(=O)[C@H](CO)NC(=O)[C@@H](NC(=O)[C@H](Cc1ccccc1)NC(=O)[C@@H](NC(=O)CNC(=O)[C@H](CCC(=O)O)NC(=O)[C@@H](CO)NC(=O)[C@@H](N)Cc1c[nH]cn1)[C@@H](C)O)[C@@H](C)O)C(C)C)[C@@H](C)O)C(=O)N[C@@H](C)C(=O)N[C@@H](CSCC(=O)NCCOCCOCCOCCOCCC(=O)O[C@H]1CC[C@@]2(C)C(=CC[C@H]3[C@@H]4CC[C@H]([C@H](C)CCCC(C)C)[C@@]4(C)CC[C@@H]32)C1)C(N)=O,,lean Glp1r knockout mice,"subcutaneous, 1.9 µmol/kg daily, 5 days",relative to: wild-type mice,weight loss,inhibited
CCCCOc1nc(N)c2[nH]c(=O)n(CCCN(CCCN3CCOCC3)Cc3cccc(CC(=O)OC)c3)c2n1,,"rat, Brown Norway, ovalbumin-sensitised","intratracheal, 1 mg/kg once weekly, eight doses, challenge 26 days after last dose",,BAL IL-13,inhibited
CCCN1C(=O)CCc2cc(NS(=O)(=O)Cc3ccccc3)ccc21,,Arabidopsis thaliana Col-0 seeds,1 µM,,seed germination inhibition,inactive
COc1cc(CN2CCN(c3ccc(C)cc3)CC2)c2cc3[n+](cc2c1O)CCc1cc2c(cc1-3)OCO2,"ferric reducing power, FRAP",,"10 µg/mL, 30 min",higher is greater reducing power,FRAP absorbance,2.22 ± 0.26 a.u.
CN(C)c1cc2ccccc2c(N)n1,,"ICR mouse, CCl4 liver fibrosis","intraperitoneal, 1 and 3 mg/kg daily",,liver hydroxyproline,decreased
COc1ccc2c(c1)C(C)(C)C(/C=C/C1=C(Oc3ccc(C(=O)NCCCCOc4cc(CN(Cc5ccccn5)Cc5ccccn5)cc(CN(Cc5ccccn5)Cc5ccccn5)c4)cc3)C(=C/C=C3/N(CCCCS(=O)(=O)[O-])c4ccc(OC)cc4C3(C)C)CCC1)=[N+]2CCCCS(=O)(=O)[O-].O=[N+]([O-])[O-].O=[N+]([O-])[O-].[99Tc+].[C-]#[O+].[C-]#[O+].[C-]#[O+].[Zn+2],,BALB/c mouse S. aureus myositis,"intravenous, 0.74 MBq/mouse, 12 h",relative to: infected over contralateral muscle,target-to-non-target ratio,10.1 ± 1.1
CC(C)C[C@H](N)C(=O)N1CCC[C@H]1C(=O)NCC(=O)NCC(=O)O,"diketopiperazine formation, transition state theory",1-propanol,"70, 80, 90 °C, 0.5% acetic acid",,ΔS‡ at 298.15 K,14 ± 1 J/(mol·K)
CCCCCCOC(=O)Cc1c(C)n(C(=O)c2ccc(Cl)cc2)c2ccc(OC)cc12,hot plate test,BALB/c mice,"75 mg/kg, 0 min",,latency of nociceptive response,9.58 ± 0.46 s
NC(=S)N/N=C1\c2ccccc2-c2nc3cc(F)ccc3nc21,,mice with STZ-induced diabetes,"oral, 25 mg/kg, 288 h, day 12",,blood glucose,388 ± 82.7 mg/dL
CC[C@H]1[C@@H](O)[C@@H]2[C@H](CC[C@]3(C)[C@@H]([C@H](C)CCOS(=O)(=O)[O-])CC[C@@H]23)[C@@]2(C)CC[C@@H](O)C[C@@H]12.[Na+],,ob/ob NASH mouse model,"oral, 10 mg/kg once daily, 8 weeks",relative to: body weight,liver weight,8 ± 0.3%
Cc1csc(NC(=O)CN2CCC(O)CC2)n1,Fe3+/ascorbic acid system,,"concentration not given, 30 min, 37 °C, together with: DMSO 33 mM",,hydroxyl radical scavenging,100%
COCCOCCOCCC(=O)Oc1ccc(CC(=O)N/C=C/c2ccc(C(F)(F)F)cc2)cc1OC,,"C57BL/6 mouse, male and female","intraplantar, 45 µg, together with: 2% formalin 120 min later",,phase II nociception decrease,54%
NC(=O)C[C@H](N)C(=O)N1CCC[C@H]1C(=O)NCC(=O)NCC(=O)O,"diketopiperazine formation, transition state theory",1-propanol,"concentration not given, 70, 80, 90 °C, 0.5% acetic acid",,enthalpy of activation,17.9 ± 0.478 kcal/mol
COc1ccc(C2CC(c3ccc(C)cc3)=Nc3ccccc3S2)cc1OC (centres unmarked),,"Wistar rat, STZ-induced diabetes, serum","20 mg/kg, 28 days",,HDL cholesterol,58.4 mg/dL
COc1c2c(cc3oc(CO)cc(=O)c13)O[C@H](C(C)(C)O)C2,analgesic effect,"Kunming mouse, female","oral, 2 mg/kg, 0 h, 55 °C, before dosing, 30 s cut-off",,hot plate latency,8.17 ± 1.18 s
Cc1nc(C)c(C=[N+]([O-])C(C)(C)C)nc1C,"Western blot, item: HO-1","mouse, MPTP model, substantia nigra nuclei",30 mg/kg,,protein level increase,25.6%
CC(C)C1=C(O)C(=O)C2=C(C=C[C@H]3C(C)(C)CCC[C@]23C)C1=O,"hydroxyl radical absorbance capacity, fluorometric",,,,HORAC,0.294 Trolox equivalents

# Some of these lines once more:
Structure (SMILES),assay,test system,setting,how to read,endpoint,value
COc1c2c(cc3oc(CO)cc(=O)c13)O[C@H](C(C)(C)O)C2,analgesic effect,"Kunming mouse, female","oral, 2 mg/kg, 0 h, 55 °C, before dosing, 30 s cut-off",,hot plate latency,8.17 ± 1.18 s
O=C(/C=C/c1ccc(O)c(O)c1)OCCCC[P+](c1ccccc1)(c1ccccc1)c1ccccc1,immunoblotting,rat liver mitochondria,"10 µM, 15 min",relative to: untreated,cytochrome c release,~2.5 fold
FC(F)(F)c1ccccc1/N=c1\oc2ccccc2cc1-c1ccccc1,,"rat, formalin paw oedema","intraperitoneal, 20 mg/kg, 4 h",,oedema reduction,48.9 ± 2%
